Measured values gathered from unrelated publications.
Parts stem from different laboratories: compare values within a part only. Changes are numbered by the printed parent chain.

Set 1
Target: RING finger protein unkempt homolog, zinc fingers 1-6, SBP tag (UNK, Homo sapiens, UniProt Q9C0B0, residues 30-357)
Chain of UniProt Q9C0B0 (30-357, looked up): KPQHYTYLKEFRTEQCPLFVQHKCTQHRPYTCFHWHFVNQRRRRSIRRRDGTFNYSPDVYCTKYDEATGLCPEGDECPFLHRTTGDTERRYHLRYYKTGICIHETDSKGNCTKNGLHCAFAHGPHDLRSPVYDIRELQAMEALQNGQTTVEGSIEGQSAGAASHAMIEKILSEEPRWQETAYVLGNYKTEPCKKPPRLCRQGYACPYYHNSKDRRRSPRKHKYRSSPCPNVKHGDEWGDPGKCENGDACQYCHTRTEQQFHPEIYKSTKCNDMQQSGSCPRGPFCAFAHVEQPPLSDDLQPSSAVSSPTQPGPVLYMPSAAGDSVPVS
Technique: RNA Bind-n-Seq
Molecule type: RNA
Sample: in vitro
Concentration: 100 nM
Setting: RNA with constant flanks, vertebrate orthologous sites, ends assumed
Reference: input RNA pool
Reading: higher = stronger binding
Sequence	bound/input enrichment [ratio]
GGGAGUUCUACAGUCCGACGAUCGACCUCCCGAACGUCUGGCUUUCAAGCCGCGGCUGUUUUAGAUACUGGUUUUGUUUCCUUGACGAUGCUUCCCCGUCUGCCGCCUCCUCUUCCCCUGUUCCCGAGGUUUGACUCGUGGAUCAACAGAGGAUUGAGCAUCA	0.521
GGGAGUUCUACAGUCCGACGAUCAGUAUCCCAGUUGUACCGUGUUGGGUUGGCAUUGUACAGAAAUCAACAGCCAUAUUGGUCUAGAAACAUUAAACAUAAUUUUUUCCAUUUGUACAGGGGUAACGCACUGUAUUAAAUAUGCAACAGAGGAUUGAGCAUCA	1.37
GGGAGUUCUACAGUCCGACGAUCGUUGUGACCCAUUUAACAUCCAUAAAAAGCUAGCCAAAAAGAAUCUGCAUGUCAUUGACUUGGAUGAUGCCACUUUUCUGAGUGCAAAAUUUGGAAGGCAGCUGGUGCCUGGUUGGAAGCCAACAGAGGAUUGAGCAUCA	0.49
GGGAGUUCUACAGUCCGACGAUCGUGGCACCCCCUGUGAGAGGGAGUAGGGGGAGCUCAGGAUGACCCUCAGCUGUUCCAAUCCAGUAUUUUUUUCUUUUUUAAAAAAUUACUGUAUUUAUUAUGACGAUGGUGACUCCCCAGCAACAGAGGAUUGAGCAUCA	0.458
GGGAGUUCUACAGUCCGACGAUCAAAUUUCCCCAUUGUCGCUGAGAACCACCAAAUCUGACUUUUACAUUUGGUCUCAGAAUUUAGGUUCCUGCCCUGUUGGUUUUUUUUUUUUUUUUUUAAACAGUUUUCAAAAGUUCUUAACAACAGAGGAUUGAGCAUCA	1.44
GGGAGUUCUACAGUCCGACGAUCCAUCUCUCAUUUUAUAUGUCCAAAAAUGGCUUUGAAUUUUAAGCAAUUACUAGUUUUAAUUAGCUCUGCCCUCAUGAAGUAUUAUUAUAAUUCACCGUAAACAGAUAUCUGUCUGAAUUACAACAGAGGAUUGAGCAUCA	1.24
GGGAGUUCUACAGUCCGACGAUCAGCAACUCAAGGAUUCAGGACUGGUUUUACAAAUAUAGCAAGCAAAUAUGGAACUAACAGUAGAGGGCAGCCCAGACCAUGAAACACUGACAUUUGAUCUUAUUUAUUCUUAUUAGGGGUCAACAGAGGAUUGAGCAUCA	1.06
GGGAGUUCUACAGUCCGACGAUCUUGGGACCAGCUCUUCAAAUAGGAAUAGUAGUAAAAAAAGUAAGCAAAAUGAUAUUUGUAUAGAAAAAACAGAAGUUAAAUCAUGCAAGGCAAAUGCUGCCAGUGUUCCAGGCCCUAAAGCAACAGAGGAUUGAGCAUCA	1.05
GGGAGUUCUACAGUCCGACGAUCUAUUUUCUUAUUUUAGGUAUCAUUGCCCAGUGCCUAAGAUCUUUUACGUUCAGCUCACUGUAGGAAAUAAUGAAUUUUUUGGGGAAGGAAAGACUCGACAAGCUGCUAGACACAAUGCUGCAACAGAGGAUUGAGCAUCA	1.4
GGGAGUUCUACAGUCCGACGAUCUACAGAGGAGAGCUCACAACUCAAAGGAAAACCACUAAAGAGUUUCUAAUAGUCAAGAGCUAGGAAAUAUUAAGUCAACUUUACAAAUAAUAGCAAUUAAAAAAAGAGAUGAGAACACAGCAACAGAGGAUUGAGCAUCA	0.726
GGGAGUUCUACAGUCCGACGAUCAACAGUAGAAUUACAUAAUACUAAAGUUGCAGUUGAAAGGAUAUUCAAGUUAUGUGUUGGUAGUUACUAAAAGAAUUAUAGCUGUUAUUGCCUUGUAUUUAUAGCCCUUGUUUCAGGUUUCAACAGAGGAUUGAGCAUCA	1.05

Set 2
Target: RNA binding protein fox-1 homolog 2, RRM domain, GST-SBP tag (RBFOX2, Homo sapiens, UniProt O43251-10, residues 100-194)
Technique: RNA Bind-n-Seq
Molecule type: RNA
Sample: in vitro
Concentration: 365 nM
Setting: natural RNA segment, single round, ends assumed
Reference: no-protein control
Reading: higher = stronger binding
Construct (chain): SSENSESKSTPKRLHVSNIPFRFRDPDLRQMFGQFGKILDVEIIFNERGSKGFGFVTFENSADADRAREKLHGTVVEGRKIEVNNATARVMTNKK
Sequence	RBNS enrichment (R)
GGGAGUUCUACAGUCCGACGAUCUCCUGUUCCCUUUGACUUCAGCUGCCUGAAACAGCCAUGUCCAAGUUCUUCACCUCUAUCCAAAGGACUUGAUUUGCAUGGUAUUGGAUAAAUCAUUUCAGUAUCCUCUCUGGAAUUCUCGGGUGCCAA	2.44
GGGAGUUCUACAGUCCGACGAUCGUUUGGUAUUACUUUGACUAUGUCCACAAUAGCAGCAAUCUUGGCUUUUUGUUAGCCAAAGUGUUCUGUUUAUUUGGCUUGUCAUUUUCCGUGUGCUUUAAAAAGGUGUUUGGAAUUCUCGGGUGCCAA	0.357
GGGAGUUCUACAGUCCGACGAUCUUCCCACCCAGAACCCUUCUUGUGAGAGAUGCGCACUUUAAAGGGUGAUUUUGUUCCAGAUGUCUAUGGCUGGGUGUGUGGGGGAGGAGCACUCUCAUCUGCAGGACUCUUGGAAUUCUCGGGUGCCAA	0.603
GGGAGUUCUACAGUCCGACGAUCUUUCCUUUGUACUUUAAAAAAAAGUAUGCUAGCACUAUUGUACCUUGAAAGGAUUUCCACCAGACUGUCUUGAGUAGUGACUUCUUUGGUGAGGCAAGAAGGAUAUACAUUGGAAUUCUCGGGUGCCAA	10.4
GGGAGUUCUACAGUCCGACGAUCGCAGCUACAUUUGAAAGUGAUAGAAUAAAGAGAUUUUAAUGAGUUAUCACUUUUUCAGCUGAUAUAUUCAUUUUAAUGGCUUUUUUGAAAGUUCCUUUUUCAUGAACACAUGGAAUUCUCGGGUGCCAA	0.476
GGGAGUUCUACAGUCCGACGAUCGCCCGCAAACCUGUGAACUUUCGCCAGUGCCUGGCCUCAGACUCUGUGGGCUCUGCGUGGCCGGGCCUUGCUGGAGGCCCAGUGGGUUUUCUGGGCAAAGCAUGGCCCCUUGGAAUUCUCGGGUGCCAA	0.31
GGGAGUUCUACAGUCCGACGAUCCAGGAGUAGCUCCAUAGUUGGGCCCAGAUGAAUAUUGUCAUAUAUGACACUGACUUGUGACAUAGGGACAUACCAGCCCCCUCCAGGGCUUUGGCCACUUGAAGUUCCUGUGGAAUUCUCGGGUGCCAA	0.182
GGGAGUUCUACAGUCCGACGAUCCAUUCGAGGCGGCCUCAGGAGUGGAUGCGAUCUGUCUCUCCUGGCUCCACUCUUGCCGCCUUCCAGCUCUGAGUCUUGGGAAUGUUGUUACCCUUGGAAGAUAAAGCUGGUGGAAUUCUCGGGUGCCAA	0.574
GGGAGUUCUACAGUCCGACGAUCUGGAAGUGGAGCCAAGUUUCAGGAUUUGCAUCCCAAGAGUCUCUAAGAAUUCUUGCCAUGGUCCUAAAAACUGGAUUUUAAGAUUAUUUUACUUCCCCUUCAUGCCUGUCUGGAAUUCUCGGGUGCCAA	0.689
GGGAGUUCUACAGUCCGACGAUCAUGGAUGACAUCUCAUUGAUAGUACCCAGAUGUUGGUGGCUUUCUGAGUUGCCUGUUUACUGUUGAUGCAAUUGUUUUGAUUUUUAACUAAAUGCAAAUACCUUCCUGCCUGGAAUUCUCGGGUGCCAA	0.446
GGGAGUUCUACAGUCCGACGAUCACCACACUUGGUGGAGCCCGAUUCCCUUGUCUCAGACCAUGGUUAGUUACAUAAUUUUAUGGACUAUAGAGAUGGCGUCCCACUGAUGUGAGAAACAUCACAACAGCGAGUGGAAUUCUCGGGUGCCAA	0.183
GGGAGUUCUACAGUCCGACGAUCAGCGCCCCUGCUGCACCGCGAAUCCCUCGCCGACUCCUGGUCCCAUCCGCCUCCUCUGCAGCAGCCAGUGUGCUGCUCGAGGGUGUUGGGGGGUCCACCCGCCUCCAUCUUGGAAUUCUCGGGUGCCAA	0.182

Set 3
Target: ABI1, truncated, D143A, DHFR fusion (Arabidopsis thaliana)
Technique: DHFR PCA, deep sequencing
Sample: yeast
Setting: methotrexate growth selection, single substitutions
Together with: (+)-ABA 58 µM
Reference: wild-type fitted maximum
Reading: higher = stronger binding
Parent: PYL1, truncated, DHFR fusion (Arabidopsis thaliana); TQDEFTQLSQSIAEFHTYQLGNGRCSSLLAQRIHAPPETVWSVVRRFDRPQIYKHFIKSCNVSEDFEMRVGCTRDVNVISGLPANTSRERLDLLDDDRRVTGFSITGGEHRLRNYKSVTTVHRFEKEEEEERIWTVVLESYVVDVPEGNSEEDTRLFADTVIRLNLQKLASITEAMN
Variant	relative binding score
K54C	12.2%
I172R	48.1%
F5Q	93.1%
R111N	59.8%
L164M	87.5%
P37M	46.6%
R111S	40%
T120N	-0.122%
A13C	74.8%
T6Y	79.4%
E127R	87.4%
F15W	94.9%
T173A	83.8%
C25T	88.1%
I33C	68%
D95S	54.5%

Set 4
Target: Histone acetyltransferase KAT6A, winged helix 2, GST fusion (KAT6A, Homo sapiens, UniProt Q92794, residues 85-181)
Technique: protein binding microarray
Molecule type: double-stranded DNA, one strand shown
Sample: in vitro
Concentration: not given
Setting: 8-mer, flanks averaged, mean of 2 arrays, mostly near background
Reference: not given
Reading: higher = stronger binding
Construct (chain): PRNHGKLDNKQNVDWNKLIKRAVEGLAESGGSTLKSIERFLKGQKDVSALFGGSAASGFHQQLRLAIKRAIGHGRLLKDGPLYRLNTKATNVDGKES
Sequence	E-score
CTGTTGCA	-0.00151
ACCTGATA	-0.0641
CAAAAGGA	-0.00067
TATTGCGA	0.058
ATGTCACA	0.0036
GTTCTGGA	0.0411
GATTTCTA	0.0734
CGGTTTCC	0.0838
AAAGGTAC	0.0092
CTGGTCGA	-0.00604
ACGAGCAT	-0.0757
CTTATCCA	-0.0783
AGTTTCTG	-0.013
AAAGAATT	0.147
ATGCTTTC	0.138
TCATATGA	-0.0459
AAGCTTGC	0.0716
GAGTTTAC	0.0257

For quick reference, copied from above (set 3):
Variant	relative binding score
I172R	48.1%
F5Q	93.1%
R111N	59.8%
L164M	87.5%
P37M	46.6%
R111S	40%
T120N	-0.122%
A13C	74.8%
T6Y	79.4%
